Published values of several laboratories.
Parts stem from different laboratories: compare values within a part only. Substitutions count along the parent as printed.

Set 1
Target: RNA binding protein fox-1 homolog 2, RRM domain, GST-SBP tag (RBFOX2, Homo sapiens, UniProt O43251-10, residues 100-194)
Method: RNA Bind-n-Seq
Form: RNA
Matrix: in vitro
Concentration: 365 nM
Notes: natural RNA segment, single round, ends assumed
Relative to: no-protein control
Direction: higher = stronger binding
Shared flanks, not repeated: GGGAGUUCUACAGUCCGACGAUC … UGGAAUUCUCGGGUGCCAA
Construct (chain): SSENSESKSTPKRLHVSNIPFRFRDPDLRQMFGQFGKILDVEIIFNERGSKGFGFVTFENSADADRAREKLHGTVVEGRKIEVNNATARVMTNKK
Under “RBNS enrichment (R)”, `UGGAGUCCUGGCUGGAGGUCCUCCCCCAGUGGCCUUCCUCCCUUCCUUUCACAGCCGGUCUCUCUGCCAGGAAAUGGGGGAAGGAACUAGAACCACCUGCACCUUGAGAU` is recorded as 0.426.
Under “RBNS enrichment (R)”, `CUGUUGGGAAUGAUUGCUGUUGGAUUCUGGAAGGGAGGGGAAAGCUGCUCUGCUGCCUCUUUGCCACUUCCUGGAAGCCUUCCUCCCUGGAAGAACAGCCUUUUGCAUCU` is recorded as 1.69.
`CACCCACGGGUGGUCCAGGUCACGACUCUGCACGCCCUUAGGCCAGGUCAGCUGCGAGGGUCACAGAGCGUUCCGGGGGCCAAGGCGCCGGGCCCCGGGGCCAUGCUCUU` — result for “RBNS enrichment (R)”: 0.298.
For `AUAAACUGAAAUGCACAUAGCCAAGUCUUGACAUUACAAGAUUGUGUAUUUCUUAAAAUACAACUUUGUGUUGUACUUUGAAAUAAAUGAUGCUUUUUUUCAAAAGCCUU`, “RBNS enrichment (R)” read 0.33.
Under “RBNS enrichment (R)”, `AAGGUUUGUGGGAAAAUGUAGGUGAUUUAGAGAGAACCUUGUGUAGUUUUUCUUACGACUCAGACAGGUGGGAUGGACAGACAGGUGCAUGUUACUGCGUUCUGUGUCGG` is recorded as 2.73.
`GCCUCUUGUCUGCAAUAGGAUGUUCAUGUACAAAAGUGGUUUUCUUUAAUAAAAGGUGGAAACAUUGUGUGAUUGUCCAUCCCUCUGAAAAUGGAUGAUAAAAGAAUAAA`: “RBNS enrichment (R)” 0.483.
For `GAUUUGGAAGGGGGGUUGGGUUGGGCUGGAUAUCUUUGUAGAUGUGGACCACCAAGGGGUUGUUGAAAACUAAUUGUAUUAAAUGUCUUUUGAUAAGCCUUCUGCUCACA`, “RBNS enrichment (R)” read 1.15.
`GAACAAGAUACAUUGCAGUGUCAUUUAUAGAUCCCUAAGUUAUUUACUUUUCAUUGAAUUGAAAUUUAUUUUGGAUGAAUGACUGGCAUGAACACGUCUUUGAAGUUGUG`: “RBNS enrichment (R)” 0.423.
`AUUCUACCCUGAACAUACCUCACAGAUCCUCCCUGUCAUGCCACAUUUCACUGAUUGGAAUGUGGAAAUGGAAAAGGAAUUUAGGAUGUGCAUUUUCACCUGAGGUUUCC` — result for “RBNS enrichment (R)”: 0.259.
`UAGCCAAACACUCUACAACUGAGCUACAUCCUCCAGCCUAGGCUGUAAAUGUUUUUUGGAGCUAGAUUAGCUGCCUGCCAACCUUAGAACUGCAAAGCCAUUCCUGACCU`: “RBNS enrichment (R)” 0.352.
`UUAUGUCUGAAUGAGAAAUCUUCUGUAAGCAGAAGUUAUUUAAUAAUUCCCAGCACCACGAAAUUGUUAUACAUACAUCCCUACCAGUCACAUUCCCUGUGUUCAGAGCC`: “RBNS enrichment (R)” 0.359.
`CAUGUCAAACAUGAGAUGUGUGGACUGUGGCACUUGCCUGGGUCACACACGGAGGCAUCCUACCCUUUUCUGGGGAAAGACACUGCCUGGGCUGACCCCGGUGGCGGCCC`: “RBNS enrichment (R)” 0.254.

Set 2
Target: Interferon regulatory factor 3, full length, phosphomimetic (IRF3, Homo sapiens, UniProt Q14653, residues 1-427, S386D/S396D/S398D/S402D/T404D/S405D)
Method: protein-binding microarray
Form: double-stranded DNA, one strand shown
Matrix: in vitro
Concentration: 2540 nM top
Notes: 60-bp whole probe
Added: salmon DNA 0.4 mg/ml
Relative to: random background probes
Direction: higher = stronger binding
Shared flanks, not repeated: GCCTAGCAC … GTCTTGATTCGCTTGACGCTGCTG
Target sequence (chain): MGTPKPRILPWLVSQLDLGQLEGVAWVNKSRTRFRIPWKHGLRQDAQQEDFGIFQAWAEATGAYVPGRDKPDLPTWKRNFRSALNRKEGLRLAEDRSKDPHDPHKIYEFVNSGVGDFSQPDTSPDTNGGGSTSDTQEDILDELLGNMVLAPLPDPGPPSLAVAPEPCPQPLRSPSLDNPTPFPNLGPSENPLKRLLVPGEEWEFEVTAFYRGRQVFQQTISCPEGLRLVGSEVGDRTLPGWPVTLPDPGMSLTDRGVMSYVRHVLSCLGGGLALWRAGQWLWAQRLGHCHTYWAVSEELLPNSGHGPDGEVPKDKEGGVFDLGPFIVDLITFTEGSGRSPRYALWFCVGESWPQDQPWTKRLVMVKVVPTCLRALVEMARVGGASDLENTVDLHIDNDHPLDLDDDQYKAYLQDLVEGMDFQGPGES
For `TTAGGACTGGGACTCGGTTAGTGCTAG`, “fitted relative affinity” read -0.919 z-score.
Under “fitted relative affinity”, `GGCGGACTGCTTTTCCTGACGTGCTAG` is recorded as -0.424 z-score.
`TTAGAGTTCAGACTGGATTAGTGCTAG`: “fitted relative affinity” -0.352 z-score.
Under “fitted relative affinity”, `TCAGCTTTCTTTTTGCAACTGTGCTAG` is recorded as 2.2 z-score.
For `GACGGTATCGACACTGGGCACGTGCTA`, “fitted relative affinity” read 0.52 z-score.
For `TTAGGTTTCCTTCTCCGTTAGTGCTAG`, “fitted relative affinity” read 9.53 z-score.
Under “fitted relative affinity”, `GACGATTTCAGTATCGACACGTGCTAG` is recorded as 2.45 z-score.
`TTAGGTTTCGGACTCGGTTAGTGCTAG` — result for “fitted relative affinity”: 5.98 z-score.
For `GACGATATCGGGTTTCGCGACGTGCTA`, “fitted relative affinity” read 0.587 z-score.
`TCATGCATCTATCTTAAACTGTGCTAG` — result for “fitted relative affinity”: 0.194 z-score.
For `TTAGATATCTGGACTGGATTAGTGCTA`, “fitted relative affinity” read -0.312 z-score.
Under “fitted relative affinity”, `TTAGGTTCCATTTTCCTTTAGTGCTAG` is recorded as 7.02 z-score.
`AACGGTTTCGACTATCGGGACGTGCTA`: “fitted relative affinity” 2.79 z-score.
`CTGTTTTTCCCCTGCACTCAGTGCTAG`: “fitted relative affinity” 1.34 z-score.
Under “fitted relative affinity”, `TGGGTGACTCTTACTCATTAGTGCTAG` is recorded as -0.605 z-score.
Under “fitted relative affinity”, `TTATGTTTCCTTTCCCTTTAGTGCTAG` is recorded as 9.17 z-score.
`TCATCACTCAATCTCAAACTGTGCTAG`: “fitted relative affinity” 0.323 z-score.
Under “fitted relative affinity”, `TTAGGTTTCAACTTTCGGTTAGTGCTA` is recorded as 2.64 z-score.
Under “fitted relative affinity”, `AGAAACTTGTGTTTGTCCCTGTGCTAG` is recorded as 0.446 z-score.
`TTAGGTCTCCGTCTCGGTTAGTGCTAG` — result for “fitted relative affinity”: 2.22 z-score.
`TTAGGACTGCTTTTCCTTTCGTGCTAG`: “fitted relative affinity” 1.38 z-score.
For `GACGATAGCAGTCTCGAGACGTGCTAG`, “fitted relative affinity” read -0.548 z-score.
Under “fitted relative affinity”, `GACGATTTCAGGTTCGAGACGTGCTAG` is recorded as 1.63 z-score.
`TTAGGTTTCAGTTCCGGTTAGTGCTAG`: “fitted relative affinity” 6.3 z-score.
For `TGGTGCTTAGTATTTTTTTCCGTGCTA`, “fitted relative affinity” read -0.245 z-score.

Set 3
Target: Ras GTPase-activating protein-binding protein 1, RRM domain (G3BP1, Homo sapiens, UniProt Q13283)
Chain of UniProt Q13283 (whole entry, looked up): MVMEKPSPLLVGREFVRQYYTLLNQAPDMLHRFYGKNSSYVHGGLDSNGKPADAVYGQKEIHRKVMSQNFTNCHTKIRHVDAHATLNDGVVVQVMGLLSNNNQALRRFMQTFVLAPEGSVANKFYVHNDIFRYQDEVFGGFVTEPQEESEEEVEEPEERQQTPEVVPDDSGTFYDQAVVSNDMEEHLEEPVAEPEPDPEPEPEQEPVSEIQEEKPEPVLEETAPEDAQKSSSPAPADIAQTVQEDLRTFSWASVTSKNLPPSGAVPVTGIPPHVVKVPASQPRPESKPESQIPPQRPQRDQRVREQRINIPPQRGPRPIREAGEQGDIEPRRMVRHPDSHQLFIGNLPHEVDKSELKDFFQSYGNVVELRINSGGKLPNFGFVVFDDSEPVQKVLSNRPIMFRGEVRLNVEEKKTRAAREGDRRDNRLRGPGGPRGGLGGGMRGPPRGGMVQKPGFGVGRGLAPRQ
Method: RNA Bind-n-Seq
Form: RNA
Matrix: in vitro
Concentration: 1 µM
Notes: whole 134-nt RNA, ends assumed
Added: 150 mM KCl
Relative to: input library
Direction: higher = stronger binding
Shared flanks, not repeated: GGGAGUUCUACAGUCCGACGAUC … UGGAAUUCUCGGGUGUCAAGG
For `UCCUGUGCUACACAUCGUAUGUACCGAAUCGGGUUUUUUUGGGUUUUUUUGGGAAAGGGAAAGUAUUAUGUUACGCCGUUCGGAUCUGCA`, the log2 enrichment was -0.0224.
The log2 enrichment of `GCAGGAAGUAAAAACAAAUGGAAAUGCUUCGGAUAGUGGCAGGGGUGGGGGUUGCUAAGGAAAGGGUGUGAUGGGAGUGGGUAAAGAGUU` is reported as 1.48.
`CACAGACACCACGCACCCACACAGACACAGAGGGAAGGGGUUGGGAUGGGGACAGGGUGCACAGCAGGGCGGGGUAGGACCCCAGCCCCU` gave a log2 enrichment of -0.118.
`UCCUGUGCUACACAUCGUAUGUACCGAAUCGGUUUUUUGGGUUUUUUGGGUUUUUUGGGGAAAGUAUUAUGUUACGCCGUUCGGAUCUGC` gave a log2 enrichment of -0.156.
With `AGUCCUGUGCUACACAUCGUAUGUACCGAAUCGGGUUUUUUUGGGUUUUUGGGUGGGAAAGUAUUAUGUUACGCCGUUCGGAUCUGCACU` the log2 enrichment was 0.261.
For `UCAAGUCCUGUGCUACACAUCGUAUGUACCGAAUCGGAAAGGAAAGGGAAAGGGAAAGUAUUAUGUUACGCCGUUCGGAUCUGCACUUCC`, the log2 enrichment was -0.219.
For `CCUGUGCUACACAUCGUAUGUACCGAAUCGGGUUUUUUGGGGUUUUUUGGUUUUUUGGGGAAAGUAUUAUGUUACGCCGUUCGGAUCUGC`, the log2 enrichment was -0.222.
With `GUCCUGUGCUACACAUCGUAUGUACCGAAUCAAAUUUAAACCCCCCCAAACCCCCAAAAAAGUAUUAUGUUACGCCGUUCGGAUCUGCAC` the log2 enrichment was -0.384.
`UCCUGUGCUACACAUCGUAUGUACCGAAUCGGGAAAAAAGGGAAAAAAGGGAAAAAAGGGAAAGUAUUAUGUUACGCCGUUCGGAUCUGC` gave a log2 enrichment of 0.145.
With `AGUCCUGUGCUACACAUCGUAUGUACCGAAUCGGGAAAAAGGGAAAAAGGGAAAAAGGAAAGUAUUAUGUUACGCCGUUCGGAUCUGCAC` the log2 enrichment was -0.0765.
`CCUGUGCUACACAUCGUAUGUACCGAAUCGGCCCCCCCGGGGCCCCCCCGGCCCCCCCGGAAAGUAUUAUGUUACGCCGUUCGGAUCUGC` has a log2 enrichment of -0.667.
`CACAGACAACACGCACCCACACAGACACAGAGGGAAGGGGUAAAGAUGGGGACAGGGUGCACAGCAGGGCGGGGUAGGACCCCAGCCCCU` gave a log2 enrichment of -0.137.
With `CUGUGCUACACAUCGUAUGUACCGAAUCAAAUUUUUUUAAAUUUUUUUAAAUUUUUUUAAAAAAGUAUUAUGUUACGCCGUUCGGAUCUG` the log2 enrichment was -0.229.
The log2 enrichment of `UAGUUUAUGCCAACGUGACUUCAUUCAUACAGAUGAACCAAGGAUCGGGAUAGCAGUAUAAAAUUAGAAUCAAGACAGCUGACUGCUCAG` is reported as -0.385.

Set 4
Target: TEF, bZIP domain (human)
Method: DHFR protein complementation
Matrix: yeast
Notes: single substitutions, most at no-binding floor
Relative to: wild-type JUN-FOS pair
Direction: higher = stronger binding
Parent: JUN, bZIP domain (human); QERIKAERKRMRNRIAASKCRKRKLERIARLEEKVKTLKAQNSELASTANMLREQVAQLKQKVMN; partner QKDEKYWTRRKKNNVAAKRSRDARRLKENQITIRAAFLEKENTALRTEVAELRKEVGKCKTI
`S47P` has a binding fitness of -1.48 natural log.
`E32F` has a binding fitness of -1.34 natural log.
`A40K` gave a binding fitness of -1.45 natural log.
`S43F` gave a binding fitness of -1.55 natural log.
`A40F` has a binding fitness of -1.16 natural log.
`L45E` has a binding fitness of -1.57 natural log.
`L31E` gave a binding fitness of -1.51 natural log.
`T37P` gave a binding fitness of -1.52 natural log.
`I28L` has a binding fitness of -1.34 natural log.
For `R53V`, the binding fitness was -1.16 natural log.
With `S47V` the binding fitness was -1.39 natural log.
`S43A` gave a binding fitness of -1.36 natural log.
For `E44C`, the binding fitness was -1.57 natural log.
For `Q41V`, the binding fitness was -1.53 natural log.
`A49T` has a binding fitness of -1.22 natural log.
`I28Y` has a binding fitness of -0.939 natural log.
The binding fitness of `I28W` is reported as -1.51 natural log.
For `V56E`, the binding fitness was -1.53 natural log.
For `L52I`, the binding fitness was -1.42 natural log.
`L52G` gave a binding fitness of -1.51 natural log.
`E44H` has a binding fitness of -1.44 natural log.
With `Q41A` the binding fitness was -1.43 natural log.

A few entries again (set 2):
`TTAGGTCTCCGTCTCGGTTAGTGCTAG` — result for “fitted relative affinity”: 2.22 z-score.
`AACGGTTTCGACTATCGGGACGTGCTA`: “fitted relative affinity” 2.79 z-score.
For `TTAGGTTTCCTTCTCCGTTAGTGCTAG`, “fitted relative affinity” read 9.53 z-score.
Under “fitted relative affinity”, `TTAGGTTTCAACTTTCGGTTAGTGCTA` is recorded as 2.64 z-score.
`TCATCACTCAATCTCAAACTGTGCTAG`: “fitted relative affinity” 0.323 z-score.
Under “fitted relative affinity”, `TTATGTTTCCTTTCCCTTTAGTGCTAG` is recorded as 9.17 z-score.
